Measured values from different studies.
A part holds a random share of what one study measured. Changes are numbered by the printed parent chain.

Block 1 — technique: universal PBM; molecule type: double-stranded DNA, one strand shown; sample: in vitro; tested at: not given; reading: higher = stronger binding
Target: Sal-like protein 4, full length isoform B (SALL4, Homo sapiens, UniProt Q9UJQ4-2, residues 1-616)
Setting: 8-mer, flanks averaged, mean of replicates
Sequence | E-score
GCCATTAA | 0.1
AAGGTTGG | -0.0818
GAGTCGGA | -0.145
AAGTCAAG | -0.142
CTTACGAC | 0.0335
AAGTCGGT | -0.0869
GCCGGGAC | -0.249
CATTCGCG | -0.065
AAGTGGGG | -0.0862
CGCGATCA | -0.134
CGGATTCC | -0.117
ATATGACC | 0.23
CTTCTGCA | 0.0232
ACTTACCG | -0.0363
GTTACTTA | 0.159
GTGCTCGA | -0.163
GAGCTAGA | -0.0925
AGAGTGAA | 0.0592
CACAGACA | 0.178
GGTGCGAA | -0.16
GTCCGTAA | -0.108
GCGACGAC | -0.339
CGAATCTA | 0.049
GATAGCAA | 0.201
ATTTGACC | -0.00762

Block 2 — target: CCND2, cyclin fold, Cln2 fusion (human); technique: yeast growth competition, sequencing; sample: yeast; setting: weak parent motif; reference: not given; reading: higher = stronger binding
Starting sequence: RBL1 docking peptide (human); GSAKRRLFGEDPP; partner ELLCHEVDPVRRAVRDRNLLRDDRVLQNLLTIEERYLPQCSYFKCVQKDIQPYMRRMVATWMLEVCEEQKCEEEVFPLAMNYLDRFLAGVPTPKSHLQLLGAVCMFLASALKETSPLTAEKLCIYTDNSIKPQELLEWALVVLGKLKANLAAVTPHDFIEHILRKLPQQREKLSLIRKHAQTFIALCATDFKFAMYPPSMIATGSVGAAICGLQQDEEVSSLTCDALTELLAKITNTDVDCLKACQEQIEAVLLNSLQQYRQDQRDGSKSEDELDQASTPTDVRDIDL
Substitution | normalised enrichment score
D11I | 0.188
L7P | 0.385
K4R | 0.556
P12Q | -0.188
E10V | 0.0261
R5H | 0.507
S2Q | 0.284
A3T | 0.364
E10S | 0.483
R6E | 0.467
K4D | 0.0449
F8D | 0.661
R5W | 0.13

Block 3 — technique: protein-binding microarray; molecule type: double-stranded DNA, one strand shown; sample: in vitro; tested at: 250 nM; setting: 60-bp whole probe; with: salmon DNA 0.4 mg/ml; reference: random background probes; reading: higher = stronger binding; shared flanks, not repeated: GCCTAGCAC … GTCTTGATTCGCTTGACGCTGCTG
Target: Interferon regulatory factor 5, full length, phosphomimetic (IRF5, Homo sapiens, UniProt Q13568-2, residues 1-514, K96S/S451D/S453D/S456D/S462D)
Sequence | log fluorescence
TTAAGTTTCGGGTTTCGGTTAGTGCTA | 10.2 z-score
GACGGTTTCCTTTTCCTGAGGTGCTAG | 1.17 z-score
CTAGGTTTCCTACTGCTTTAGTGCTAG | 0.308 z-score
TTAGGTTCCGGTTTCGATTAGTGCTAG | 8.69 z-score
CTATATTTGCTTCAGGTTTAGTGCTAG | 0.587 z-score
GTAGGTATCGGGTATCGGTTAGTGCTA | 6.44 z-score
GACGGTATCGCACTGGGGACGTGCTAG | 0.377 z-score
TTAGTTATCGGGACTGGGTTAGTGCTA | 1.58 z-score
TTAGGACTGGGGTTACGGTTAGTGCTA | -0.351 z-score
TCAAGTTCATGTTTTGGACTGTGCTAG | 0.0435 z-score
TCAAGGCTGGTCTCTAACACTGTGCTA | -0.601 z-score
GACGGTTTCGACTAACGGGACGTGCTA | 6.95 z-score
GACGATATCAGACTGGACACGTGCTAG | 0.567 z-score
GACGATATCGGGTTTCAAGACGTGCTA | 2.11 z-score

Block 4 — technique: protein-binding microarray; molecule type: double-stranded DNA, one strand shown; sample: in vitro; tested at: 0.8 µM; setting: whole 60-bp probe, no competitor; reading: higher = stronger binding; shared flanks, not repeated: … GTCTTGATTCGCTTGACGCTGCTG
Target: Centromere-binding protein 1, full length, N-terminal tag (CBF1, Saccharomyces cerevisiae, UniProt P17106, residues 1-351)
UniProt P17106, sequence (whole entry, looked up): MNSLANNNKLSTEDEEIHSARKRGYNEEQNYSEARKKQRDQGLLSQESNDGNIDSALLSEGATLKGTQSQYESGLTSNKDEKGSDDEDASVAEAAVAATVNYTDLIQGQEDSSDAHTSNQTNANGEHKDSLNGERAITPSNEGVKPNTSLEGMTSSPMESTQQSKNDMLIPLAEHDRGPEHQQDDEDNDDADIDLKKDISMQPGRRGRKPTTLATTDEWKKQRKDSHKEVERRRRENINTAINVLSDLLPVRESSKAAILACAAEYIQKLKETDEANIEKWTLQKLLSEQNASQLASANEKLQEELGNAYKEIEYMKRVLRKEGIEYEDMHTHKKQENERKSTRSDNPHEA
Sequence | fluorescence intensity [a.u.]
CTATTTAGTGATCTAGCCGTGACCTTGGCAGCATTC | 660
GAAAAGGTCCATGATCATCAGGATCAACTAATCTAG | 517
GAATTTCTTACACCGCATGTGATAGGATACTAGTAG | 1430
GAAGAATAAAAAAATCACCACGAACACACAACCTAG | 566
GAACGGTATACTCGTCATGAGACACGAAAAGTGTAG | 1090
GAATAATTTCTTGAGCACGAACTCGAAGCGTTTTAG | 548
CTATCCGCATAATTAAACGTGTGCTGGCCTCGATTC | 566
CTAGGAAATACGTGGAACGTGTAATATGTTGTTTTC | 549
TGTACGAAGCTATCTCATGTGTGTATAGTAGTTAGG | 519
CCTAACTACTATATGCATGTGATATAGCTTCGTACA | 1590
GAATTCCATTATCATCACGTGTAGCGTTTCTGCTAG | 7340
GAAGGAATAAACAGTCACCTTTAACAAGAGGAGTAG | 573
CCTAACTACTATAAAAAGCACGTATAGCTTCGTACA | 524
GAATGATATTCCACTCACGAGCTACAGGTAGTATAG | 631
CTATATAAACTTCAACACGCCACCTGGTCTTGGTTC | 655
GAAACAAACCTGTCACGTGCAACATTATGGGGTTAG | 17900
CTACTCGTAATGCATCAGATTCTGGTCATGCTTTTC | 901
CCTAACTACTATACGCACGTCATATAGCTTCGTACA | 523
CTACCACTCTTTCTCCACGTGGCTTTGCTTTCCTTC | 2480

Block 5 — target: CEBPD, bZIP domain (human); technique: DHFR protein complementation; sample: yeast; reference: wild-type JUN-FOS pair; reading: higher = stronger binding
Setting: single substitutions, most at no-binding floor
Starting sequence: JUN, bZIP domain (human); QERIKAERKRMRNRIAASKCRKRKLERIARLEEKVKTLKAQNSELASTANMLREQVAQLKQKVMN; partner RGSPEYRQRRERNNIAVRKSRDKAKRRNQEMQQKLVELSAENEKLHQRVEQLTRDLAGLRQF
Substitution | binding fitness [natural log]
S43E | -1.22
L52Q | -1.43
Q55Y | -1.43
L52E | -1.53
L31R | -1.45
V35C | -1.23
Q55I | -1.36
Q55T | -1.48
K34G | -1.46
M51A | -1.3
K36S | -1.38
E32W | -1.48
M51H | -1.44

For quick reference, copied from above (block 4):
Sequence | fluorescence intensity [a.u.]
GAACGGTATACTCGTCATGAGACACGAAAAGTGTAG | 1090
GAATAATTTCTTGAGCACGAACTCGAAGCGTTTTAG | 548
CTATCCGCATAATTAAACGTGTGCTGGCCTCGATTC | 566
CTAGGAAATACGTGGAACGTGTAATATGTTGTTTTC | 549
TGTACGAAGCTATCTCATGTGTGTATAGTAGTTAGG | 519
CCTAACTACTATATGCATGTGATATAGCTTCGTACA | 1590
GAATTCCATTATCATCACGTGTAGCGTTTCTGCTAG | 7340
GAAGGAATAAACAGTCACCTTTAACAAGAGGAGTAG | 573
CCTAACTACTATAAAAAGCACGTATAGCTTCGTACA | 524
GAATGATATTCCACTCACGAGCTACAGGTAGTATAG | 631
CTATATAAACTTCAACACGCCACCTGGTCTTGGTTC | 655
GAAACAAACCTGTCACGTGCAACATTATGGGGTTAG | 17900
CTACTCGTAATGCATCAGATTCTGGTCATGCTTTTC | 901
